Published values pooled from the literature.
Each numbered part is a random draw from the data of one study; scales do not carry over between parts. Positions count from the first letter of the parent shown.

Study 1
Target: RNA binding protein fox-1 homolog 2, RRM domain, GST-SBP tag (RBFOX2, Homo sapiens, UniProt O43251-10, residues 100-194)
Method: RNA Bind-n-Seq
Molecule type: RNA
Matrix: in vitro
Tested at: 365 nM
Notes: natural RNA segment, single round, ends assumed
Relative to: no-protein control
Direction: higher = stronger binding
Construct (chain): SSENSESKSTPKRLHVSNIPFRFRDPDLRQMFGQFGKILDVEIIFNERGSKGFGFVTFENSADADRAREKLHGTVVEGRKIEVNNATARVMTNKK
Oligonucleotide | RBNS enrichment (R)
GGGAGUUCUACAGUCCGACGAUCUGCACAGCCCUGAGACCCCACUGGACUGCUGCUCCUUAGCUGGUCUAAAUAGAGCUUCUCUGUCCGAUUUGGCUCUUGUAUGGUCUGUCAUUGUUGGGCAAGAAGGGGAAUGGAAUUCUCGGGUGCCAA | 2.34
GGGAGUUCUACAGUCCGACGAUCAUCUGUGCUUUAAGCUAAGGAAAUAUUGCCUGGUGGGUUGGCUGCCUGGUAUUGGGCAUGGAAAUUUGAAUUGCUGAUUGGUAGAUGGUGUGUCUGGACUUAACUCACGUUGGAAUUCUCGGGUGCCAA | 0.573
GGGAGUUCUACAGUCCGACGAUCACACUACAUAGAAAGAGGCCCUAUAAACUCAAAAAGUCAUUGGGAAACUUAAAGUCUAUUCUACUUUGCAAGAGGAGAAAUGUGUUUUAUGAACGAUAGAUCACAUCAGAUGGAAUUCUCGGGUGCCAA | 0.326
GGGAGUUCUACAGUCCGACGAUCGUUGGUCCUUGAUGGCUGUCCCCUCCACCCUACCCCUGAGAAGGGAAGCUGCCCGUUGCUGCUACUGCACCUCACCACCAACUCCCUCAUGGACAGACAGAUCCCUGAUGUGGAAUUCUCGGGUGCCAA | 0.694
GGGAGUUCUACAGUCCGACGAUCGGGGAGGGUGUUUGGGAAAGAUAAAUAGACAUAAAUAUAUAACAAUCACUUCUUGAAGAAGUAUAAUUGUAAAUAAGCCAUGUAAAAUGCCUUUUUAAAAUUUAAUUUUCUGGAAUUCUCGGGUGCCAA | 1.28
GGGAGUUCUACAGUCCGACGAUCAAGACUACUGGACUUGUAUCCAUGGUACUAUACUCAGUCCUCUUAUCUCAGCUUGCUGAGGGGCAGGGAGAGGGUCUCUUCCUCUGGGCAGCACUAUCUAGAUAGGUAAGUGGAAUUCUCGGGUGCCAA | 0.272
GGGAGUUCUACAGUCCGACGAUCGGAAUGGACUUUCCCCUAGGUAUCCAGGGAACCCAUUUUAGAAUUCGGGGGACCUGGCUUUGAGCUAGUUGGCCCCCAGCCCCAGCUGGUUUUUCUAAGGGUCAACUCAGUGGAAUUCUCGGGUGCCAA | 0.25
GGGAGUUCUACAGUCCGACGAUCAAACUAUAGUACUGUGUAAUUAUGUAUAAAGGUUUUUUUAUUUAUUUGAAAUUAGGUUAGAUAUACAUUUUUAAAUUUAACAUCUGGCUGGACAGUGUUCUAUUAACUCAUGGAAUUCUCGGGUGCCAA | 1.2

Study 2
Target: Interferon regulatory factor 7, full length, phosphomimetic (IRF7, Homo sapiens, UniProt Q92985, residues 1-503, S471D/S472D/S475D/S476D/S477D/S483D/S484D/S487D)
UniProt Q92985, sequence (whole entry, unmodified, looked up): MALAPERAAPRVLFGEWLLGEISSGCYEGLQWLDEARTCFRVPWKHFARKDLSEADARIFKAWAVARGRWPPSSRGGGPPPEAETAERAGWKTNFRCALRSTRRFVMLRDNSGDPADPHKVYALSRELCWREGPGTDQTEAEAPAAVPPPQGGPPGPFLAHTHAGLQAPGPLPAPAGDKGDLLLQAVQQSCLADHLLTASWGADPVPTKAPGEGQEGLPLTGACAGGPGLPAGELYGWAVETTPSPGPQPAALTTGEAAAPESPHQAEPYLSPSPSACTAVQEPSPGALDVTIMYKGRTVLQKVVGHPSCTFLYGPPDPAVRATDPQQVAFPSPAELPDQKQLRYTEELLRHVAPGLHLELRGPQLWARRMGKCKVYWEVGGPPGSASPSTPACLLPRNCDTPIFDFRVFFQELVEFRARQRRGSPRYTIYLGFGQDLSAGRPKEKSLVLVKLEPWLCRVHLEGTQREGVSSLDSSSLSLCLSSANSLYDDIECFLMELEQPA
Method: protein-binding microarray
Molecule type: double-stranded DNA, one strand shown
Matrix: in vitro
Tested at: 2200 nM top
Notes: 60-bp whole probe
Together with: salmon DNA 0.4 mg/ml
Relative to: random background probes
Direction: higher = stronger binding
All sequences stand within: GCCTAGCAC … GTCTTGATTCGCTTGACGCTGCTG
Oligonucleotide | fitted relative affinity [z-score]
GACGGACTGCTTCTCCTGAGGTGCTAG | -0.000889
GCATTTTTTTTTTCTACTTCGTGCTAG | 3.07
GACGGTATCGGTATCGGGAAGTGCTAG | 0.309
TAACTTTTTTTTTTCCCTGAGTGCTAG | 1.58
GACGGTCTCGGTATCGAGACGTGCTAG | -0.159
GACGGTTTCGGGTTTCGGGGCGTGCTA | 9.98
TCAAGACTTTCTTTCAAACTGTGCTAG | 0.256
GACGGTATCCTTCTCCCGACGTGCTAG | 1.04
GACGGTTTAGGTCTCGGGACGTGCTAG | 0.544
GTCGAACTGAGTATCGAGACGTGCTAG | 0.182
TTAGGTCTCCTTTTCCTTCAGTGCTAG | 1.83
TTAGATATCGGGTATCGATAAGTGCTA | 0.000316
TCCCCGGAGCTGGACAGAAGGTGCTAG | -0.912
TTAGATTTCAGTTTCGATGAGTGCTAG | 3.82
TTAGGTTTCGACTTGCGGTTAGTGCTA | 8.89
GACGGACTGGACACTGGGAACGTGCTA | -1.07
TGGAACCAGCGAACGAGCGGGTGCTAG | -0.484
GACGGTATCTGTTTCGGGACGTGCTAG | 2.55
TTAGGTCTCCTTCTCCTTTAGTGCTAG | 1.04

Study 3
Target: CCNA1, cyclin fold, Cln2 fusion (human)
Method: yeast growth competition, sequencing
Matrix: yeast
Notes: weak parent motif
Relative to: not given
Direction: higher = stronger binding
Starting sequence: E2F1 docking peptide (human); PPVKRRLDLETDH; partner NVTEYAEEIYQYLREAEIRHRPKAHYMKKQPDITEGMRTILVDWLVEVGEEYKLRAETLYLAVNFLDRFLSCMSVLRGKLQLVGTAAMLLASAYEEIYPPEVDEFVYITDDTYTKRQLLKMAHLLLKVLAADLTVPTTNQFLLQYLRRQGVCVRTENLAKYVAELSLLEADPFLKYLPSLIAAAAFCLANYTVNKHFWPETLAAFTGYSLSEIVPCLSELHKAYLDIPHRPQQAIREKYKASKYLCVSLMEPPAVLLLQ
Change | normalised enrichment score
PPVKRRLDLETTH [D12T] | 0.228
PPVKLRLDLETDH [R5L] | 0.472
PPVKRKLDLETDH [R6K] | 0.289
PPYKRRLDLETDH [V3Y] | 0.506
PPSKRRLDLETDH [V3S] | 0.533
PVVKRRLDLETDH [P2V] | 0.325
PPVKRMLDLETDH [R6M] | 0.545
PPVKRRLDLETLH [D12L] | 0.309
PPVKRRDDLETDH [L7D] | 0.187
PPVKRRRDLETDH [L7R] | 0.246
PPVKRRLDLHTDH [E10H] | 0.803
PPVKRRFDLETDH [L7F] | 0.134
PEVKRRLDLETDH [P2E] | 0.485
PPIKRRLDLETDH [V3I] | 0.157
PPVKRHLDLETDH [R6H] | 0.285
PPVKRRGDLETDH [L7G] | 0.178
PPVIRRLDLETDH [K4I] | 0.204
PPVKRRLDLETDK [H13K] | 0.631
PPVKVRLDLETDH [R5V] | -0.201
PIVKRRLDLETDH [P2I] | 0.147
PCVKRRLDLETDH [P2C] | 0.502
PPRKRRLDLETDH [V3R] | 0.597

Study 4
Target: Histone acetyltransferase KAT6A, winged helix 2, GST fusion (KAT6A, Homo sapiens, UniProt Q92794, residues 85-181)
Method: protein binding microarray
Molecule type: double-stranded DNA, one strand shown
Matrix: in vitro
Tested at: not given
Notes: 8-mer, flanks averaged, mean of 2 arrays, mostly near background
Relative to: not given
Direction: higher = stronger binding
Residues (chain): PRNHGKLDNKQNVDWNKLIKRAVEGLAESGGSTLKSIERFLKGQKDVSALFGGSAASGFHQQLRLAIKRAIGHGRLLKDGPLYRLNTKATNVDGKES
Oligonucleotide | E-score
AAACTCGC | 0.0878
CCGCCATC | 0.073
ATGATTGC | 0.1
AGCATGCT | -0.145
TTATAGAA | 0.167
ATCTGCCA | -0.00297
GTTATTTA | -0.0107
ATGAGGAG | -0.094
CGGGTTAC | -0.0244
AGGTGCAC | -0.111
AACGACTT | -0.184
CAGACCTG | -0.186
ATTTCATA | 0.0699
TCCACTCA | 0.0428
AGGTGATG | -0.137
GGCTAGCC | -0.00958
AGTGTTTG | -0.0272
CCTCAAAC | 0.119
CTAATCAG | 0.133
CTTTAACC | -0.0965
ATTTGGAC | 0.00242
CGACAACC | 0.00328
AATCACAC | 0.134
AATTTCTG | 0.127
GCTTGCGA | 0.319

Repeated from above (study 4):
Oligonucleotide | E-score
TCCACTCA | 0.0428
AGGTGATG | -0.137
GGCTAGCC | -0.00958
AGTGTTTG | -0.0272
CCTCAAAC | 0.119
CTAATCAG | 0.133
